Measurements from different studies.
Parts stem from different laboratories: compare values within a part only.

Block 1
Target: Prothrombin, mature alpha-thrombin (F2, Homo sapiens, UniProt P00734)
Method: aptamer microarray, sandwich
Molecule type: DNA with 2'F-ANA
Medium: in vitro
Tested at: 200 nM
Setting: whole 15-mer aptamer, many near background
Added: Cy3 exosite-II aptamer, 400 nM
Direction: higher = stronger binding
Measurement: mean fluorescence intensity
Oligonucleotide: GGTTGGTGTGGTTGG
2'F-ANA at 2 5 6 11 15: 56 a.u.
2'F-ANA at 1 2 4 5 6 7 11 13 14 15: 49.7 a.u.
2'F-ANA at 6 8 9 12 13: 655 a.u.
2'F-ANA at 3 4 6 7 8 10 12 14 15: 149 a.u.
2'F-ANA at 2 3 4 7 9 10 12 14 15: 305 a.u.

Block 2
Target: Sal-like protein 4, full length isoform B (SALL4, Homo sapiens, UniProt Q9UJQ4-2, residues 1-616)
Method: universal PBM
Molecule type: double-stranded DNA, one strand shown
Medium: in vitro
Tested at: not given
Setting: 8-mer, flanks averaged, mean of replicates
Direction: higher = stronger binding
Measurement: E-score
CACACACG: -0.134
ACTACCAC: 0.0583
AAGCTGAA: -0.0673
CCAATAGG: 0.0666
CTCCTTCC: -0.122
CGCTTACA: -0.167

Block 3
Target: Interferon regulatory factor 5, full length, phosphomimetic (IRF5, Homo sapiens, UniProt Q13568-2, residues 1-514, S451D/S453D/S456D/S462D)
Method: protein-binding microarray
Molecule type: double-stranded DNA, one strand shown
Medium: in vitro
Tested at: 940 nM top
Setting: 60-bp whole probe
Added: salmon DNA 0.4 mg/ml
Reference: random background probes
Direction: higher = stronger binding
Measurement: fitted relative affinity
All sequences stand within: GCCTAGCAC … GTGCTAGGTCTTGATTCGCTTGACGCTGCTG
AGGTTTCTATATTTGCTTCA: 5.67 z-score
TGTCTTTTCACTTTCTTTAA: 3.07 z-score
TTAGGACTGGGACTGGGTTA: -0.4 z-score
GACGATCTCAGACTCGAGAC: -0.31 z-score
AACGGACTGGGTATCGGGAC: 0.619 z-score
GACGGACTGGGACTGGAGAC: -0.643 z-score

Single results of other studies
PhoQ, residues 284 288 289 292 302 303 TAVSDG
fold induction (PhoP, residues 12 14 15 18 19 LHSVW (Escherichia coli, UniProt P23836); Sort-seq, item: YFP reporter; E. coli; PhoQ-PhoP variant library, added: 10 µM Mg2+; reference: high Mg2+ state, higher = stronger signaling): 1.02
